# Published values from different studies.
# Each line is one published result; not all experiments were run side by side. “And” joins repeats or separate records; there may be more than shown. ± marks the error that the study gave.
SMILES,cell line,assay,system,conditions,scale,IC50
Cc1ccc(C(C)C)cc1.F[P-](F)(F)(F)(F)F.[Cl][Os+]1[N]2C=CC=c3ccc4c(c32)[N]1C=CC=4,Hs 683,"cell growth or viability, MTT",,,,77.9 µM
CCOc1c(Cl)cccc1-n1c(CN2CCNCC2)nc2ccccc2c1=O,PANC-1,"cell growth or viability, ATP luminescence",,72 h,,2.6 µM
CC(=O)N[C@H](C(=O)N[C@@H](CCCNC(=N)N)C(=O)N[C@@H](CCCCN)C(=O)N[C@@H](CCCNC(=N)N)C(=O)N[C@H](C(=O)N[C@@H](CC(C)C)C(=O)N[C@@H](CCCNC(=N)N)C(=O)N[C@]1(C)CCCC=CCCC[C@@](C)(C(=O)N[C@@H](CCC(=O)O)C(=O)N[C@@H](CCCNC(=N)N)C(=O)N[C@@H](CCC(=O)O)C(=O)N[C@@H](CC(C)C)C(=O)N[C@H](C(=O)N[C@@H](CCC(=O)O)C(N)=O)C(C)C)NC(=O)[C@H](CC(C)C)NC(=O)[C@H](CC(C)C)NC1=O)[C@@H](C)O)C(C)C,SK-N-MC,cell viability,,"18 h, serum-free",,> 10 µM
Cc1sc2c(c1C)C(c1ccc(-c3cccc(NC(=O)c4cnn5cccnc45)c3)cc1)=N[C@@H](CC(N)=O)c1nnc(C)n1-2,NOMO-1,"cell growth or viability, ATP luminescence",,72 h,,0.0095 µM
CCC1(c2ccc(NC(=O)CCC(=O)OC3OC4OC5(C)CCC6C(C)CCC(C3C)C46OO5)cc2)CCC(=O)NC1=O (mixture of isomers),Hep3B,"cell growth or viability, CCK-8",,,,1.01 µM
CC(C)=CCc1c(O)cc2c(c1O)C(=O)CC(c1ccc(O)cc1)O2 (stereo not shown),normal pig cell line,"cytotoxicity, MTT",,48 h,,24.4 ± 2.7 µM
CCOc1cc(Cl)ccc1-n1c(CN2CCNCC2)nc2ccccc2c1=O,PANC-1,"cell growth or viability, ATP luminescence",,72 h,,0.036 µM
CCCCCCCC(=O)NCCCC[C@H](NC(=O)CCCCCCC)C(=O)N[C@@H](CCCCNC(=O)CCCCCCC)C(=O)NCC(=O)NCC(=O)NCC(=O)N[C@@H](CS)C(=O)N[C@@H](CCCNC(=N)N)C(=O)N[C@@H](CCCCN)C(=O)N1CCC[C@H]1C(N)=O,IPEC-J2,"cell growth or viability, MTT",,24 h,,127 µM
CC1CCC2C(C)C(OC(=O)CCC(=O)N3CCN(CC(=O)Nc4ccc([N+](=O)[O-])c(C(F)(F)F)c4)CC3)OC3OC4(C)CCC1C32OO4 (stereo not shown),PC-3 (p53 null),"cell growth, CCK-8",,48 h,,> 50 µM
CC(=O)N[C@H](C(=O)N[C@@H](CCCNC(=N)N)C(=O)N[C@@H](CCCCN)C(=O)N[C@@H](CCCNC(=N)N)C(=O)N[C@@]1(C)CCCC=CCCC[C@@](C)(C(=O)N[C@@H](CC(C)C)C(=O)N[C@@H](CCC(N)=O)C(=O)N[C@@H](CCC(=O)O)C(=O)N[C@@H](CCCNC(=N)N)C(=O)N[C@@H](CCC(=O)O)C(=O)N[C@@H](CC(C)C)C(=O)N[C@H](C(=O)N[C@@H](CCC(=O)O)C(N)=O)C(C)C)NC(=O)[C@H](CCCNC(=N)N)NC(=O)[C@H](CCCNC(=N)N)NC(=O)[C@H](CC(C)C)NC1=O)C(C)C,H3255 (EGFR L858R),"cell viability, ATP luminescence",,18 h,,77.2 ± 12.7 µM
Cc1cc(Nc2nc(C[C@@]3(C(=O)O)CCN(Cc4cccc(Cl)c4F)[C@H](C)C3)cc(C)c2F)[nH]n1,Daoy,"cell growth or viability, ATP luminescence",,5 days,,0.0246 µM
CC[C@H](C)[C@H](NC(=O)[C@H](Cc1c[nH]cn1)NC(=O)[C@H](CCCNC(=N)N)NC(=O)[C@H](CCCNC(=N)N)NC(=O)[C@H](CCCNC(=N)N)NC(=O)CNC(=O)[C@H](CCCNC(=N)N)NC(=O)[C@H](CCCNC(=N)N)NC(=O)[C@H](CCCNC(=N)N)NC(=O)[C@H](CCC(N)=O)NC(=O)[C@H](CCCNC(=N)N)NC(=O)[C@H](CCCNC(=N)N)NC(=O)[C@H](CCCCN)NC(=O)[C@H](CCCCN)NC(=O)[C@H](CCCNC(=N)N)NC(C)=O)C(=O)N[C@H](C(=O)N[C@@H](CCCNC(=N)N)C(=O)N[C@@H](CCCCN)C(=O)N[C@@H](CCCNC(=N)N)C(=O)N[C@H](C(=O)N[C@@H](CC(C)C)C(=O)N[C@@H](CCCNC(=N)N)C(=O)N[C@@H](CCCNC(=N)N)C(=O)N[C@@H](CC(C)C)C(=O)N[C@@H](CC(C)C)C(=O)N[C@@H](CCC(N)=O)C(=O)N[C@@H](CCC(=O)O)C(=O)N[C@@H](CCCNC(=N)N)C(N)=O)[C@@H](C)O)C(C)C,H3255 (EGFR L858R),cell viability,,"18 h, serum-free",,8.99 µM
O=C(O)c1ccc([S][Au][PH](c2ccccc2)(c2ccccc2)[c-]2cccc2)cc1.[Fe+2].c1cc[cH-]c1,CAKI-1,"cell growth or viability, XTT",,24 h,,4.17 µM
CC(=O)N[C@H](C(=O)N[C@@H](CCCNC(=N)N)C(=O)N[C@@H](CCCCN)C(=O)N[C@@H](CCCNC(=N)N)C(=O)N[C@]1(C)CCCCCCC=CCCC[C@@](C)(C(=O)N[C@@H](CCCNC(=N)N)C(=O)N[C@@H](CCC(=O)O)C(=O)N[C@@H](CC(C)C)C(=O)N[C@H](C(=O)N[C@@H](CCC(=O)O)C(N)=O)C(C)C)NC(=O)[C@H](CCC(N)=O)NC(=O)[C@H](CC(C)C)NC(=O)[C@H](CC(C)C)NC(=O)[C@H](CCCNC(=N)N)NC(=O)[C@H](CCCNC(=N)N)NC(=O)[C@H](CC(C)C)NC1=O)C(C)C,SK-N-MC,cell viability,,"18 h, serum-free",,~10 µM
CC(C)C12OC1C1OC13C1(C)CCC4=C(COC4=O)C1CC1OC13C2OC(=O)CCCOC1OC(CO)C(O)C(O)C1O (stereo not shown),DU-145,"cell growth or viability, XTT",,47 h,,0.44 µM
CCOc1ccccc1-n1c(CN2CCOCC2)nc2ccccc2c1=O,PANC-1,"cell growth or viability, ATP luminescence",,72 h,,> 10 µM
C[C@@H]1COCCN1c1nc(NCc2cccnc2C(F)(F)F)c2cccnc2n1,HepG2 spheroids,cytotoxicity,,,,> 250 µM
CCOc1ccccc1-n1c(CN2CCNCC2)nc2ccccc2c1=O,CAL-27,cell growth or viability,,72 h,,0.192 µM
CC(=O)N[C@H](C(=O)N[C@@H](CCCNC(=N)N)C(=O)N[C@@H](CCCCN)C(=O)N[C@@H](CCCNC(=N)N)C(=O)N[C@H](C(=O)N[C@@H](CC(C)C)C(=O)N[C@@H](CCCNC(=N)N)C(=O)N[C@]1(C)CCCC=CCCC[C@@](C)(C(=O)N[C@@H](CCC(=O)O)C(=O)N[C@@H](CCCNC(=N)N)C(=O)N[C@@H](CCC(=O)O)C(=O)N[C@@H](CC(C)C)C(=O)N[C@H](C(=O)N[C@@H](CCC(=O)O)C(N)=O)C(C)C)NC(=O)[C@H](CC(C)C)NC(=O)[C@H](CC(C)C)NC1=O)[C@@H](C)O)C(C)C,H3255 (EGFR L858R),"cell viability, ATP luminescence",,18 h,,> 100 µM
CC(C)C12OC1C1OC13C1(C)CCC4=C(COC4=O)C1CC1OC13C2OC(=O)CCC(=O)OC1OC(CO)C(O)C(O)C1O (stereo not shown),SCC-25,"cell growth or viability, XTT",,47 h,,1.26 µM
CCOc1ccc(-n2c(CN3CCNCC3)nc3ccccc3c2=O)cc1,PANC-1,"cell growth or viability, ATP luminescence",,72 h,,> 10 µM
Cc1cc(Oc2nc(N3CC[C@@H](c4ccncc4)C3)ncc2F)[nH]n1,DLD-1,cell proliferation,colon cancer,,,31.6 µM
CCCCCCCC(=O)NCCCC[C@H](NC(=O)CCCCCCC)C(=O)N[C@@H](CCCCNC(=O)CCCCCCC)C(=O)NCC(=O)NCC(=O)NCC(=O)N[C@@H](CS)C(=O)N[C@@H](CCCNC(=N)N)C(=O)N[C@@H](CCCCN)C(=O)N1CCC[C@H]1C(=O)N[C@@H](CS)C(=O)N[C@@H](CCCNC(=N)N)C(=O)N[C@@H](CCCCN)C(=O)N1CCC[C@H]1C(=O)N[C@@H](CS)C(=O)N[C@@H](CCCNC(=N)N)C(=O)N[C@@H](CCCCN)C(=O)N1CCC[C@H]1C(N)=O,human red blood cells,haemolysis,,"pH 7.4, 37 °C",relative to: Triton X-100,314 µM
CC[C@H](C)[C@H](NC(=O)[C@H](CCCCN)NC(=O)[C@@H](NC(=O)[C@H](CCC(N)=O)NC(=O)[C@@H](N)CCCNC(=N)N)[C@@H](C)CC)C(=O)N[C@@H](Cc1c[nH]c2ccccc12)C(=O)N[C@@H](Cc1ccccc1)C(=O)N[C@@H](CCC(N)=O)C(=O)N[C@@H](CC(N)=O)C(=O)N[C@@H](CCCNC(=N)N)C(=O)N[C@@H](CCCNC(=N)N)C(=O)N[C@@H](CCSC)C(=O)N[C@@H](CCCCN)C(=O)N[C@@H](Cc1c[nH]c2ccccc12)C(=O)N[C@@H](CCCCN)C(=O)N[C@@H](CCCCN)C(=O)N[C@@H](CC(C)C)C(=O)N[C@@H](CCC(=O)O)C(=O)N[C@H](C(=O)N[C@@H](C)C(=O)N[C@H](C(=O)N[C@@H](CC(N)=O)C(=O)N[C@@H](CC(C)C)C(=O)N[C@@H](C)C(=O)N[C@@H](Cc1c[nH]c2ccccc12)C(=O)O)C(C)C)[C@@H](C)O,CLL patient PBMCs,"cell death, PI staining flow cytometry",,90 min,,3.5 µM
CC(=O)N[C@H](C(=O)N[C@@H](CCCNC(=N)N)C(=O)N[C@@H](CCCCN)C(=O)N[C@@H](CCCNC(=N)N)C(=O)N[C@H](C(=O)N[C@@]1(C)CCCC=CCCC[C@@](C)(C(=O)N[C@@H](CCC(N)=O)C(=O)N[C@@H](CCC(=O)O)C(=O)N[C@@H](CCCNC(=N)N)C(=O)N[C@@H](CCC(=O)O)C(=O)N[C@@H](CC(C)C)C(=O)N[C@H](C(=O)N[C@@H](CCC(=O)O)C(N)=O)C(C)C)NC(=O)[C@H](CC(C)C)NC(=O)[C@H](CCCNC(=N)N)NC(=O)[C@H](CCCNC(=N)N)NC1=O)[C@@H](C)O)C(C)C,H3255 (EGFR L858R),cell viability,,"18 h, serum-free",,> 50 µM
COC(=O)[C@H](C(C)C)N(C)C(=O)[C@H](C(C)C)N(C)C(=O)[C@@H]1CCCN1C(=O)[C@H](C)N(C)C(=O)OC(C)(C)C,DU-145,"cell growth or viability, SRB",,,,2.92 µM and 2.98 µM and 3.01 µM
CCOc1cccc(Br)c1-n1c(CN2CCNCC2)nc2ccccc2c1=O,PANC-1,"cell growth or viability, ATP luminescence",,72 h,,2.2 µM
CC1CCC2C(C)C(OC(=O)CCC(=O)OC3C(C)OC(n4cc(F)c(=O)[nH]c4=O)C3OC(=O)CCC(=O)OC3OC4OC5(C)CCC6C(C)CCC(C3C)C46OO5)OC3OC4(C)CCC1C32OO4 (stereo not shown),OVCAR-3,"cell growth or viability, CCK-8",,,,0.88 µM
